Experimental data collected from several papers.
Parts stem from different laboratories: compare values within a part only. Changes are numbered by the printed parent chain.

Series 1
Target: Protein C-ets-1 (ETS1, Homo sapiens, UniProt P14921, residues 1-441, Y397A, full length assumed)
Chain of UniProt P14921 (whole entry, unmodified, looked up): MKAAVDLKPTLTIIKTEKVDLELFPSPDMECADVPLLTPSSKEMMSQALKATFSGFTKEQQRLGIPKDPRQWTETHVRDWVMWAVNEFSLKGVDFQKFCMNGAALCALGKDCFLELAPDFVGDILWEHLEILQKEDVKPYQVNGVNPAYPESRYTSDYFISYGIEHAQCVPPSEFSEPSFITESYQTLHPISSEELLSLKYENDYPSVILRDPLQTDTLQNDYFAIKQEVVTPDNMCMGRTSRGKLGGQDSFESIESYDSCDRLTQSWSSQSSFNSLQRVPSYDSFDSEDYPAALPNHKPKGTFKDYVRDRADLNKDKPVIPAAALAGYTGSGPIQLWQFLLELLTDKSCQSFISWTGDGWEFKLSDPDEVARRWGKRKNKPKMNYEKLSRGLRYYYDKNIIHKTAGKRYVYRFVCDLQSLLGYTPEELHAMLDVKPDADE
Method: protein-binding microarray
Molecule type: double-stranded DNA, one strand shown
Matrix: in vitro
Tested at: not given
Setting: k-mer, scored over probes, only values ≥0.25
Reading: higher = stronger binding
Endpoint: E-score
TCGACGAA: 0.315
TTGACAAA: 0.419
GCGGAAAC: 0.26
TATTGGCA: 0.367
CACTATAG: 0.26
CTTCCGCC: 0.423
CGCAAACA: 0.311
ATATATAC: 0.263
GGAAGTAA: 0.37
CACTTCCG: 0.479
ACATCCGA: 0.372
TACGGCAA: 0.255
AACATGTA: 0.259
GTCAAACA: 0.272
CCCCACCC: 0.299
TTTACAAA: 0.282
CCGCCCCG: 0.427
AGTTGCAA: 0.258

Series 2
Target: CCND3, cyclin fold, Cln2 fusion (human)
Method: yeast growth competition, sequencing
Matrix: yeast
Setting: weak parent motif
Relative to: not given
Reading: higher = stronger binding
Endpoint: normalised enrichment score
Parent: CUX1 docking peptide (human); SRIRRELFIEEIQ; partner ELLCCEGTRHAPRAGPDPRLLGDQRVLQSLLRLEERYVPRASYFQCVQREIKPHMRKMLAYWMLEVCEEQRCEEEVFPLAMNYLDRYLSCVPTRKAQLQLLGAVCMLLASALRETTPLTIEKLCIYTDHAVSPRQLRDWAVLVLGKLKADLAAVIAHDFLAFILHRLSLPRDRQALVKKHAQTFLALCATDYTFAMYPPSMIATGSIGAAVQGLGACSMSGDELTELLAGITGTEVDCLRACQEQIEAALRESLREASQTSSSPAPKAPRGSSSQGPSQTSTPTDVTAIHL
I9A: 0.0116
R5K: 0.365
I3A: 0.171
R5A: 0.0767
R2A: -0.00387
F8A: 0.137
I12A: -0.0165

Series 3
Target: Prothrombin, mature alpha-thrombin (F2, Homo sapiens, UniProt P00734)
Method: aptamer microarray, sandwich
Molecule type: DNA with 2'F-ANA
Matrix: in vitro
Tested at: 200 nM
Setting: whole 15-mer aptamer, many near background
Together with: Cy3 exosite-II aptamer, 400 nM
Reading: higher = stronger binding
Endpoint: mean fluorescence intensity
Strand: GGTTGGTGTGGTTGG
2'F-ANA at 5 6 7 11 15: 55.5 a.u.
2'F-ANA at 1 3 6 12: 504 a.u.
2'F-ANA at 1 3 4 7 8 11 12 13 14 15: 115 a.u.
2'F-ANA at 1 3 7 8 9 10 12 13 14 15: 69.6 a.u.
2'F-ANA at 2 3 7 11 14 15: 483 a.u.
2'F-ANA at 1 2 4 11 12 15: 203 a.u.
2'F-ANA at 1 2 3 4 5 6 7 12 14 15: 80.2 a.u.
2'F-ANA at 1 3 4 8 10 14: 49 a.u.
2'F-ANA at 1 2 6 8 9 10 11: 53.6 a.u.
2'F-ANA at 2 5 6 8 9 11 13: 56.4 a.u.
2'F-ANA at 7 11 15: 528 a.u.
2'F-ANA at 1 3 4 5 7 8 10 12 14: 78.4 a.u.
2'F-ANA at 1 3 9 10 11 13 15: 120 a.u.
2'F-ANA at 2 3 4 5 9 10 11 12 13 14: 60.6 a.u.
2'F-ANA at 1 3 6 7 9 10 11 12: 94.3 a.u.
2'F-ANA at 1 2 3 4 8 9 13 14: 56.3 a.u.
2'F-ANA at 1 2 3 4 5 6 7 9 11 12 14: 72.2 a.u.
2'F-ANA at 3 5 7 8 9 10 13 14 15: 111 a.u.

Series 4
Target: BATF3, bZIP domain (human)
Method: DHFR protein complementation
Matrix: yeast
Setting: single substitutions, most at no-binding floor
Relative to: wild-type JUN-FOS pair
Reading: higher = stronger binding
Endpoint: binding fitness
Parent: JUN, bZIP domain (human); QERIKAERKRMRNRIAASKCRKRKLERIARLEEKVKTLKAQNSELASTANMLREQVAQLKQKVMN; partner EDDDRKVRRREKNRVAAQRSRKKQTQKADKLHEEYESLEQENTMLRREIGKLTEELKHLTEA
T48N: 0.101 natural log
E33A: 0.21 natural log
Q55R: 0.239 natural log
L31Q: 0.128 natural log
K36H: 0.201 natural log
A29I: 0.196 natural log
L59V: 0.433 natural log
A57V: 0.294 natural log
E33G: 0.149 natural log
N42A: -0.164 natural log
E32K: 0.115 natural log
S43C: 0.229 natural log
V56P: -0.959 natural log
K34G: 0.284 natural log

Series 5
Target: RNA binding protein fox-1 homolog 2, RRM domain, GST-SBP tag (RBFOX2, Homo sapiens, UniProt O43251-10, residues 100-194)
Method: RNA Bind-n-Seq
Molecule type: RNA
Matrix: in vitro
Tested at: 365 nM
Setting: natural RNA segment, single round, ends assumed
Relative to: no-protein control
Reading: higher = stronger binding
Endpoint: RBNS enrichment (R)
Constant ends, left off below: GGGAGUUCUACAGUCCGACGAUC … UGGAAUUCUCGGGUGCCAA
Residues (chain): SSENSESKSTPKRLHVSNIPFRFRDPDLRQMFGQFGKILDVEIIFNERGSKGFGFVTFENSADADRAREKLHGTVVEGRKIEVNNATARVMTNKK
AGCAUAUGGGAGUAUUUUUUCACAUUUUCUUUGUAUAAAAUUUGUAUUAAACUUAAAUAUCUUUUUUAUGAUGGCGUUUCUUCAUGGCUGAACAGCGUCCUCUCGCGGUU: 0.479
AAACACCAGACUCGCUCAGAGGUGAUGUCCAUCUUUGAGAAACAUGAAGCUUUGCUUUGUGGAUUGUAUGCCUGAUAUGAUGAAUAGUCAUGUGAUGAUACAUGGGAAGA: 0.347
UGGCUCAUCUAGUCUUCCUUUUGUAGCGCAUGGUUGGGAGGAAAAAGUGCAUGCCUCUGUACGUCACACCUUUCUCACCCCUCCCUACCAACACGAGGUGUUUGGUCUGC: 7.71
UGAUCAGUGGCUAAAGUUGAAAAGGGGUUGGUUUCUUUCAUAUAUGUAUGUGUGUGUACAUGCGCAUACAUAGAUAUAUGCACACAUAGAUUAUGUGCUUGACCACUGCC: 0.314
CCGACUUUACAUGCUCAGAAUGCUGUGCACAAGCCACGCUUUCUAAAGCCCAUCCAGAUUAGUUUAGCUCUGACCACUAAUGGCAGGUCUUAAGGACCUUGUGAUUAGUC: 0.286
GAGACGUGAUUUCCGAUGCGCAUCUUCAGAGUCAAACACACCCUCCCUCGUGUACAACCAAAGAACAGGCAUUAUGAAAUUGUAUAGUAAUAUCUAGAAACACCACUUCC: 0.543
UCAAAAUGGAGAGUUAUUUAAAGUGGAUGUGUAGCCUUCUGGAAUCUGCACGUGACUGGCAUUUUAAAACAACUCAUUAAAUAUUGGAUUCAUUUUAUCGAGAUGCCAAG: 4.22
AGAUUGUUAGGCUCAGAUCAAGGGUGGGGAAAUACUGCCCUCUCGUGGUGGCUUUUCAUCCAGGCCUCGUAGCCAACCGUUUAAGUGCAAAAUAGAAUUAAGCAAUGGGU: 0.303
CUGCGUAUCGCAGUGGAAUAAGACUGCACAGUUGCUGGUAGGUGAGUUUAAAGUCUUAAUCUAUGCAUUCAGAGAAAUAUUUUUAUAUGCUUUGUGUAAUUUAUAACAAG: 0.618
UUUCCCUCAAUGCAUGUAAUUAAACACUUGUGGAAAUCGCUUUAACAAUAAACAGGAAAUGAGCCUAGUAUUGUUCAUUUCUUAUUUCCUUUAGAGUUUAUGACUGAGGG: 24.6
ACCCUCUUCUCCCGGUCCCAUCUUCUGAGAGGGCUUCUCAGCCUGGAAACUAUGGAAACAGCAUCAAAGAGAAAGGAAUGUGGGGGGUUUCCGCUGCCCCCCACCCCCAG: 0.549
CCGGACCAGACGGACACAGGGAGAAGCUAGUUUCUUUCAUGUGAUUGAAAUGAUGACUCUACUCCUAAAAGGGAAAAAACAAUAUCCUUGUUUACAGAAGAGAAACAAAC: 0.395

Series 6
Target: ABI1, truncated, D143A, DHFR fusion (Arabidopsis thaliana)
Method: DHFR PCA, deep sequencing
Matrix: yeast
Setting: methotrexate growth selection, single substitutions
Together with: (+)-ABA 0.39 µM
Relative to: wild-type fitted maximum
Reading: higher = stronger binding
Endpoint: relative binding score
Parent: PYL1, truncated, DHFR fusion (Arabidopsis thaliana); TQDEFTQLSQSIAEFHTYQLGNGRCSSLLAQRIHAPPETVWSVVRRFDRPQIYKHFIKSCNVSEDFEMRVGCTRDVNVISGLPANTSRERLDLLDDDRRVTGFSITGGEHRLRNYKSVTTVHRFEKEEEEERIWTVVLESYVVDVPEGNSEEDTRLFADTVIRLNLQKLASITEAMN; partner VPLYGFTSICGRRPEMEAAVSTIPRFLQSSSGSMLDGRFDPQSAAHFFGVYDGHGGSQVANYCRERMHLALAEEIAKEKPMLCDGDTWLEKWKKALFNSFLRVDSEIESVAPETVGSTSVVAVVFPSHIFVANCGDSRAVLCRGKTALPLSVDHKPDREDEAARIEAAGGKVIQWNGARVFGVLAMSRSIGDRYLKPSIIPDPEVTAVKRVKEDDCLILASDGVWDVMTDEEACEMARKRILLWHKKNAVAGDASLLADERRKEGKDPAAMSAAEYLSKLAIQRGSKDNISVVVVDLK
P37T: 13.3%
V76T: -7.03%
H16F: -12.8%
G71T: -15.1%
D96S: -11.6%
H34K: 51.1%
E129Q: 46.6%
I172H: -0.204%
H34N: 59.7%
I79C: 47.8%
T73Q: 29.9%
H55C: 70%
R45W: 1.13%
I79G: -0.438%
S171I: 11.5%
D48Q: -11.4%

Series 7
Target: Histone acetyltransferase KAT6A, winged helix 1, GST fusion (KAT6A, Homo sapiens, UniProt Q92794, residues 1-85)
Method: protein binding microarray
Molecule type: double-stranded DNA, one strand shown
Matrix: in vitro
Tested at: not given
Setting: 8-mer, flanks averaged, mean of 2 arrays, mostly near background
Relative to: not given
Reading: higher = stronger binding
Endpoint: E-score
Target sequence (chain): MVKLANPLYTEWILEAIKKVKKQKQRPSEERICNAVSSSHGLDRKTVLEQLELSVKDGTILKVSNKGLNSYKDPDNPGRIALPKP
GGCTCTAC: -0.0193
CTTGCCGA: -0.0059
GCACTAAC: 0.0976
AAGAGCTG: -0.196
CTTCTAAC: -0.196
CTGAACAG: -0.174
AGTGATTC: -0.108
ACCATACG: 0.108
AAGAAGAG: -0.111
CACCTCAG: -0.154
AGGCCGAT: 0.0886
AGGTCCCG: 0.288
ACTGGCCC: -0.181
ATGGATGA: -0.12
TAACCTCA: -0.166
AAGCAGGG: -0.188
GAGATGGA: -0.261
CGACGTAC: -0.0669
CGAATTCA: 0.00645

Some of these lines once more (series 1):
CGCAAACA: 0.311
ATATATAC: 0.263
GGAAGTAA: 0.37
CACTTCCG: 0.479
ACATCCGA: 0.372
TACGGCAA: 0.255
